Results of several laboratories.
Numbered parts are unrelated; each lists some results of a single study.
Chain of UniProt Q16832 (whole entry, looked up): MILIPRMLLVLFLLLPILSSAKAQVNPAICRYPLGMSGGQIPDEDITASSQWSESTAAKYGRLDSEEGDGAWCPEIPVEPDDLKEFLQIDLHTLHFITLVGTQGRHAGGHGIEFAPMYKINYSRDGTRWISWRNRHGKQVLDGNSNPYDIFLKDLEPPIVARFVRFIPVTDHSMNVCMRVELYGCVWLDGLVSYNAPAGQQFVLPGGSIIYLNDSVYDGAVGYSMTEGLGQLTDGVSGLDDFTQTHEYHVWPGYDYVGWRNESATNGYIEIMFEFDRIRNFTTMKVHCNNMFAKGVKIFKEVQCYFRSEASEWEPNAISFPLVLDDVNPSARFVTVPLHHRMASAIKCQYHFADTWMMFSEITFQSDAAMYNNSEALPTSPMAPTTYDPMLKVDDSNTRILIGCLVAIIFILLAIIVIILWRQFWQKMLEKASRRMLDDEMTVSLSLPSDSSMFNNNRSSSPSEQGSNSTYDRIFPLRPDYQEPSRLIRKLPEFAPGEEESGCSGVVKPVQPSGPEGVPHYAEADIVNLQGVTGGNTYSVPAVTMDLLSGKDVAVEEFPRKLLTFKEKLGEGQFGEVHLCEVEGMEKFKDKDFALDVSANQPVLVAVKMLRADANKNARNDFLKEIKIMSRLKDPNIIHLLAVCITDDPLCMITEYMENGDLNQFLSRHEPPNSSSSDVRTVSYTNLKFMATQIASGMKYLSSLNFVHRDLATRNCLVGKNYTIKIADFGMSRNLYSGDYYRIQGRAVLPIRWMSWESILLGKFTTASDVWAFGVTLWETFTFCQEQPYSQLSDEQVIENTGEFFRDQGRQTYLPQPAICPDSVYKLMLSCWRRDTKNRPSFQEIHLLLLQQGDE
Chain of UniProt O75676 (whole entry, looked up): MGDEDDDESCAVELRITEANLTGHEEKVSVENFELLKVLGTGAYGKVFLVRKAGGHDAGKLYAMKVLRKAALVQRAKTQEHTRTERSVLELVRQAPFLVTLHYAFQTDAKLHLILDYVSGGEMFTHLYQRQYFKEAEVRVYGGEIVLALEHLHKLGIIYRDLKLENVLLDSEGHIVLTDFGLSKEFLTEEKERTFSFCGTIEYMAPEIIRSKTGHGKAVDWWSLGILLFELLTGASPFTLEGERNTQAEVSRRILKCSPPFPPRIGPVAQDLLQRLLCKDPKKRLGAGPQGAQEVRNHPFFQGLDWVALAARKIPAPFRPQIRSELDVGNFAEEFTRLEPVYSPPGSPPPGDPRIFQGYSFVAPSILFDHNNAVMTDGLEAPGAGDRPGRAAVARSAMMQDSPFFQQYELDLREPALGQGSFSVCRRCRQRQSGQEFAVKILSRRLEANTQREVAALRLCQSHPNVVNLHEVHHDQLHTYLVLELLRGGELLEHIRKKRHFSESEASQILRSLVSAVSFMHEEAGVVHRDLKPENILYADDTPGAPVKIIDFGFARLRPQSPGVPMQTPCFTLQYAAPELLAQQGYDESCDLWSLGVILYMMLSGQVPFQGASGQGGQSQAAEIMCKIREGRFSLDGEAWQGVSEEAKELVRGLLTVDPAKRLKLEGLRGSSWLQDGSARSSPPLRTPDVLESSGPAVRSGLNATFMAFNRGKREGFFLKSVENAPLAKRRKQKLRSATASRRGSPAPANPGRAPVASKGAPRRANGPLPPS
Chain of UniProt P45983 (whole entry, looked up): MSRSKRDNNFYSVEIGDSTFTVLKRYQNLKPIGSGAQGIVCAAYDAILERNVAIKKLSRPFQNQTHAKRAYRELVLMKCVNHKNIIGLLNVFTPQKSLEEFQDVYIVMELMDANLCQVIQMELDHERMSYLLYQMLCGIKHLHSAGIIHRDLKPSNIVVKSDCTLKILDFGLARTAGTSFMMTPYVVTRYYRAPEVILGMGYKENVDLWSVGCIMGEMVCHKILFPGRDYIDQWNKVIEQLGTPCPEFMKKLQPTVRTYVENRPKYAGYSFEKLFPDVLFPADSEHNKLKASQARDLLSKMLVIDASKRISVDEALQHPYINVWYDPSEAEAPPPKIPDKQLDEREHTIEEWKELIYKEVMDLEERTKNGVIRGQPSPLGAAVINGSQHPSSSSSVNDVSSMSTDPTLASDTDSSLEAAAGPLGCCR
Chain of UniProt Q9H4B4 (whole entry, looked up): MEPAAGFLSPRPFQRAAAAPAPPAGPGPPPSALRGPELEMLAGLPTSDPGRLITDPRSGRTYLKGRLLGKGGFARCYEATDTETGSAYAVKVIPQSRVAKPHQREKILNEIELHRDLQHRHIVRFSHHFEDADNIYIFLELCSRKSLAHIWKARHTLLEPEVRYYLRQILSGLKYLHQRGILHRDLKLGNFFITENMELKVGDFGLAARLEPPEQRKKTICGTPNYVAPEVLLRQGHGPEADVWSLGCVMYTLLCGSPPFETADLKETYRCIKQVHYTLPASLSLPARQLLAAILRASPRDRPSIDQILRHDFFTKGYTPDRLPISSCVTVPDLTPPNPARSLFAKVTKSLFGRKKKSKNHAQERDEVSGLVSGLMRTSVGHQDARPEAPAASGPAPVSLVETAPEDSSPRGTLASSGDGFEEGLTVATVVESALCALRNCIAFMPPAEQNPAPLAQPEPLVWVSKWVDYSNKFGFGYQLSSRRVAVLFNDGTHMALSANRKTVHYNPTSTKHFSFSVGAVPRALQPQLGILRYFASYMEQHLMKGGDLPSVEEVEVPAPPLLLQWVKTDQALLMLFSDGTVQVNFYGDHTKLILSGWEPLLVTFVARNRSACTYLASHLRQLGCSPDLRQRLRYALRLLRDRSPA
Chain of UniProt O75914 (whole entry, looked up): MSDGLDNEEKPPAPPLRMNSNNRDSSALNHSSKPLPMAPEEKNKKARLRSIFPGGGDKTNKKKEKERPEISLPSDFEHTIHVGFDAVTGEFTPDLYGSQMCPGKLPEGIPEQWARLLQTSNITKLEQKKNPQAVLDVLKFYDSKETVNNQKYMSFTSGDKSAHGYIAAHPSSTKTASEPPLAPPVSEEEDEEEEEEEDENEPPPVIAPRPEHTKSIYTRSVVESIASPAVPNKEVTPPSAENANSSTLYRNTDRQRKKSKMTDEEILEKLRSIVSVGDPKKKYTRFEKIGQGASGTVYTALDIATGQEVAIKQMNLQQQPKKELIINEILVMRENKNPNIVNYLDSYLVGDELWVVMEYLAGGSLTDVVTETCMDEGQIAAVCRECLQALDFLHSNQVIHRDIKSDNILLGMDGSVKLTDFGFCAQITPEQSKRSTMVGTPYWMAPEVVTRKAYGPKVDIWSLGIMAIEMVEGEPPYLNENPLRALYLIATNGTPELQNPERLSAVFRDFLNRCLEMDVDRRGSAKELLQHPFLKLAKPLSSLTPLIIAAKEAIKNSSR
Chain of UniProt O14920 (whole entry, looked up): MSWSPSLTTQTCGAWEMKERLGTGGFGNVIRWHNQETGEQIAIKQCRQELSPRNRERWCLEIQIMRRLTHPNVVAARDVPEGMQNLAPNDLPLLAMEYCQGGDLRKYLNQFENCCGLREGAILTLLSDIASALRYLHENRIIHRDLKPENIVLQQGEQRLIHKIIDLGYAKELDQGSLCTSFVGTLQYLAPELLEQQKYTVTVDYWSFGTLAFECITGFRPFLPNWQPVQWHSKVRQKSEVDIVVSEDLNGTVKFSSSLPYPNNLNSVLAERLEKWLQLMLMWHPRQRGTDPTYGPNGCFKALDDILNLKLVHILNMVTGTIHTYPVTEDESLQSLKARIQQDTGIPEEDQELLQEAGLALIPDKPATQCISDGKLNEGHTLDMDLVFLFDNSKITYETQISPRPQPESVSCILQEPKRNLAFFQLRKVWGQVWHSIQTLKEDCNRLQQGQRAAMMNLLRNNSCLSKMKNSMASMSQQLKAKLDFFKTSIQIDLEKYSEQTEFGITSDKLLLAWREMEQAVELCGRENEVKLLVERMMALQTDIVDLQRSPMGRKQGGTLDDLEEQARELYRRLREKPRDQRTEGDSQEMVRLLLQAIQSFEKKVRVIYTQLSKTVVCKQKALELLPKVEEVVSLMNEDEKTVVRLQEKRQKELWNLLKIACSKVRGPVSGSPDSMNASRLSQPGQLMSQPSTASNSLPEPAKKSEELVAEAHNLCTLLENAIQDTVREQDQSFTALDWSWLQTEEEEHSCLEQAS
Chain of UniProt Q13237 (whole entry, looked up): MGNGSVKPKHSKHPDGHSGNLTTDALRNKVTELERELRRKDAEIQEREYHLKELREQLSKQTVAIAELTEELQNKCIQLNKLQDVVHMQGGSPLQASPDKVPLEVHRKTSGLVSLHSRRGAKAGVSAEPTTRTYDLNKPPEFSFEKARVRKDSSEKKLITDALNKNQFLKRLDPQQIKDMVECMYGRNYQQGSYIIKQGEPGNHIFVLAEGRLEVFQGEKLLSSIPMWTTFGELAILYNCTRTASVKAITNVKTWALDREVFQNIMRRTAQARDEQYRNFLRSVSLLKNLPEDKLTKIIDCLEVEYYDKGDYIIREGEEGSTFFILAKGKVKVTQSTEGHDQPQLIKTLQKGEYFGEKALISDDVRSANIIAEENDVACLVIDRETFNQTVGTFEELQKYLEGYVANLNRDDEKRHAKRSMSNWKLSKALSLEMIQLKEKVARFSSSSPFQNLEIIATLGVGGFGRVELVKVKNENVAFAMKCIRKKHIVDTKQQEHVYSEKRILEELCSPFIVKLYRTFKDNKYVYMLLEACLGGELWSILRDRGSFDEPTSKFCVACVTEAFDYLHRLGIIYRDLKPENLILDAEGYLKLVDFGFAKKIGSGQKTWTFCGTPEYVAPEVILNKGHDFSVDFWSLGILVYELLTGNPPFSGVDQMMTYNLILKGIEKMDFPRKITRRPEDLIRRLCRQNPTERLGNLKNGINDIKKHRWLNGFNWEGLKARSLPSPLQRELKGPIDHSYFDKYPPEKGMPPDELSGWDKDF

Block 1
Host: mouse
Medium: microsomes or S9
Tested at: 2 µM
Time: 0.5 h
For CO[C@H]1C[C@H](C(=O)Nc2ccncc2C(C)=O)N(S(C)(=O)=O)C1, the remaining compound was 82.5%.
The remaining compound of CCCn1nccc1-c1csc(S(=O)(=O)Nc2ccccc2)c1 is reported as 0.0076%.
With COc1cc(=O)n2c(c1C(=O)NCc1cccc(C(F)(F)F)c1)CCCC2 the remaining compound was 34.3%.
The remaining compound of N#Cc1nc(-c2ccccc2F)oc1NCC1CCCO1 (centres unmarked) is reported as 9.17%.
For COC(=O)CC(c1c(O)cc(C)n(CCc2ccc(O)cc2)c1=O)c1cnn2cccnc12 (centres unmarked), the remaining compound was 9.35%.
CCN(Cc1cccc(F)c1)C(=O)c1occc1CS(=O)(=O)c1ccccc1 has a remaining compound of 0.422%.
The remaining compound of O=C1CC(c2ccccc2Cl)c2cc3c(cc2N1)CCC3 (centres unmarked) is reported as 5.9%.
For O=C(Nc1c(C(c2ccc(Cl)cc2)N2CCN(CCO)CC2)oc2ccccc12)c1cccs1 (centres unmarked), the remaining compound was 19%.
For Cn1cc(-c2noc(C3CCCCC3)n2)ccc1=O, the remaining compound was 3.42%.

Block 2
Compound: CC(C)n1cnc(-c2ccc(F)cc2)c1-c1ncc(C(=O)Nc2ccc(N3CCN(C)CC3)cc2)[nH]1
Method: phase 2a clinical trial
Host: patients with idiopathic pulmonary fibrosis
item: idiopathic pulmonary fibrosis; 60 mg once daily, Grade 2 — “patients with treatment-emergent adverse events”: 0%.
item: electrocardiogram high voltage; dose not given, Grade 4, all drug arms total — “patients with treatment-emergent adverse events”: 0%.
The “patients with treatment-emergent adverse events” was 0% (item: left bundle branch block; dose not given, Grade 2, all drug arms).
For item: left bundle branch block; dose not given, Grade 5, all drug arms: “patients with treatment-emergent adverse events” read 0%.
item: electrocardiogram high voltage; 30 mg once daily, Grade 1 — “patients with treatment-emergent adverse events”: 0%.
The “patients with treatment-emergent adverse events” was 0% (item: gastro-oesophageal reflux disease; dose not given, Grade 3, all drug arms total).

Block 3
SMILES: CC(=O)Nc1c(C(C)=O)c(=O)n(C)c2nc(-c3ccc(Cl)cc3Cl)c(-c3ccc(Cl)cc3)cc12
Effect on: cell-free assay
Method: competition with immobilised ligand
Tested at: 1 µM
For COQ8A (Homo sapiens, UniProt Q8NI60): remaining binding read 100%.
It gave 100% for remaining binding (CAMK2G (Homo sapiens, UniProt Q13555)).
For CHEK2 (Homo sapiens, UniProt O96017): remaining binding read 100%.
The remaining binding was 71% (MAPK8 (Homo sapiens, UniProt P45983)).
For IKBKB (Homo sapiens, UniProt O14920): remaining binding read 100%.

Block 4
Compound: N#Cc1cnc2cnc(NCc3cccnc3)cc2c1Nc1ccc(F)c(Cl)c1
Effect on: enzyme activity
Mode: inhibitor
Tested at: 0.5 µM
Relative to: control
For MARK4 (Homo sapiens, UniProt Q96L34): remaining activity read 96.4%.
For TLK2 (Homo sapiens, UniProt Q86UE8): remaining activity read 106%.
It gave 92% for remaining activity (RPS6KA4 (Homo sapiens, UniProt O75676)).
PAK3 (Homo sapiens, UniProt O75914) — remaining activity: 99.2%.
The remaining activity was 94.9% (MET (Homo sapiens, UniProt P08581)).
ROCK1 (Homo sapiens, UniProt Q13464) — remaining activity: 99.8%.
It gave 102% for remaining activity (MAPK11 (Homo sapiens, UniProt Q15759)).
MINK1 (Homo sapiens, UniProt Q8N4C8) — remaining activity: 77.5%.
The remaining activity was 124% (CDC42BPB (Homo sapiens, UniProt Q9Y5S2)).
It gave 63.3% for remaining activity (CLK4 (Homo sapiens, UniProt Q9HAZ1)).
For GRK4 (Homo sapiens, UniProt P32298): remaining activity read 98.8%.
It gave 90.9% for remaining activity (PRKG2 (Homo sapiens, UniProt Q13237)).
Cyclin-dependent kinase 1, with cyclin A (CDK1, Homo sapiens, UniProt P06493) — remaining activity: 88%.
It gave 91.9% for remaining activity (DDR2 (Homo sapiens, UniProt Q16832)).
It gave 91.1% for remaining activity (PLK3 (Homo sapiens, UniProt Q9H4B4)).

Repeated from above (block 1):
For CO[C@H]1C[C@H](C(=O)Nc2ccncc2C(C)=O)N(S(C)(=O)=O)C1, the remaining compound was 82.5%.
For Cn1cc(-c2noc(C3CCCCC3)n2)ccc1=O, the remaining compound was 3.42%.
The remaining compound of O=C1CC(c2ccccc2Cl)c2cc3c(cc2N1)CCC3 (centres unmarked) is reported as 5.9%.
